Measurements of several laboratories.
Compare with care: the assays were run in different laboratories. “And” joins repeats or separate records; there may be more than shown. Numbers after ± are the reported error.
UniProt P49759, sequence (whole entry, looked up): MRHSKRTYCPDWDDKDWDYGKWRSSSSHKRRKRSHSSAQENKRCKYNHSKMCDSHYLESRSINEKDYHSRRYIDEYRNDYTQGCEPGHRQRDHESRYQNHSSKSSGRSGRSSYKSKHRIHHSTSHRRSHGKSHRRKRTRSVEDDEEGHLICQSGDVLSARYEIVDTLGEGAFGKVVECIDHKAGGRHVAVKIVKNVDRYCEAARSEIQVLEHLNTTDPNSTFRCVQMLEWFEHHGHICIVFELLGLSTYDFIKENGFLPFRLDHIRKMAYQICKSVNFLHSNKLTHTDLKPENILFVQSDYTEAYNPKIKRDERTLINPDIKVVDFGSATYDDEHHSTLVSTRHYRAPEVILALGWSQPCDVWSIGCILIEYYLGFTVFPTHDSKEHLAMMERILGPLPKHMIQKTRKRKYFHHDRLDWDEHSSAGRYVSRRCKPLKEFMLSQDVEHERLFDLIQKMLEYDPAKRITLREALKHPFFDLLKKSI
UniProt P10275, sequence (whole entry, looked up): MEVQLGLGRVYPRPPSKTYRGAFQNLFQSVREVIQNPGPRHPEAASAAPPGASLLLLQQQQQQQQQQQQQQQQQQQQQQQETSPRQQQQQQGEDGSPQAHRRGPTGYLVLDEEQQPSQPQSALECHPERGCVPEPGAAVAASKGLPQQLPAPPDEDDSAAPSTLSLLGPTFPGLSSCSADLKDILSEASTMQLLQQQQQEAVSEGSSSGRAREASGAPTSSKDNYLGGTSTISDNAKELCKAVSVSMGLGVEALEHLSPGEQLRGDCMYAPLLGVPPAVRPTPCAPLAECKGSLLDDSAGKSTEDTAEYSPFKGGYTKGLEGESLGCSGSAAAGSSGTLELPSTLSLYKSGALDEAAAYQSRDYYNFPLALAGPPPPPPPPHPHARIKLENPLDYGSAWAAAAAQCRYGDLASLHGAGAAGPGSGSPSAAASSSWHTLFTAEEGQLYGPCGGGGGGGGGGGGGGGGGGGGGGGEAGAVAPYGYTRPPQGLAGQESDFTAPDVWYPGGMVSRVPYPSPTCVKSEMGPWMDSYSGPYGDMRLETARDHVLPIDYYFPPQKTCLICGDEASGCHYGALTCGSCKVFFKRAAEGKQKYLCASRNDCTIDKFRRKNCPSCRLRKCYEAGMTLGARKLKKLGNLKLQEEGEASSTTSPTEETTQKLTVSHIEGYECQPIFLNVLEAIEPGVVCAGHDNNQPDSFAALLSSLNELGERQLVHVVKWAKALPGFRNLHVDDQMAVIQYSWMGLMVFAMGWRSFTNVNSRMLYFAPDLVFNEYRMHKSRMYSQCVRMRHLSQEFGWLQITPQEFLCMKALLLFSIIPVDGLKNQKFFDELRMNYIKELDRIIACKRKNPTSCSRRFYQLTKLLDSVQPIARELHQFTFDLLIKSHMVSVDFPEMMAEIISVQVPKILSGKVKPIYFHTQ
UniProt Q07912, sequence (whole entry, looked up): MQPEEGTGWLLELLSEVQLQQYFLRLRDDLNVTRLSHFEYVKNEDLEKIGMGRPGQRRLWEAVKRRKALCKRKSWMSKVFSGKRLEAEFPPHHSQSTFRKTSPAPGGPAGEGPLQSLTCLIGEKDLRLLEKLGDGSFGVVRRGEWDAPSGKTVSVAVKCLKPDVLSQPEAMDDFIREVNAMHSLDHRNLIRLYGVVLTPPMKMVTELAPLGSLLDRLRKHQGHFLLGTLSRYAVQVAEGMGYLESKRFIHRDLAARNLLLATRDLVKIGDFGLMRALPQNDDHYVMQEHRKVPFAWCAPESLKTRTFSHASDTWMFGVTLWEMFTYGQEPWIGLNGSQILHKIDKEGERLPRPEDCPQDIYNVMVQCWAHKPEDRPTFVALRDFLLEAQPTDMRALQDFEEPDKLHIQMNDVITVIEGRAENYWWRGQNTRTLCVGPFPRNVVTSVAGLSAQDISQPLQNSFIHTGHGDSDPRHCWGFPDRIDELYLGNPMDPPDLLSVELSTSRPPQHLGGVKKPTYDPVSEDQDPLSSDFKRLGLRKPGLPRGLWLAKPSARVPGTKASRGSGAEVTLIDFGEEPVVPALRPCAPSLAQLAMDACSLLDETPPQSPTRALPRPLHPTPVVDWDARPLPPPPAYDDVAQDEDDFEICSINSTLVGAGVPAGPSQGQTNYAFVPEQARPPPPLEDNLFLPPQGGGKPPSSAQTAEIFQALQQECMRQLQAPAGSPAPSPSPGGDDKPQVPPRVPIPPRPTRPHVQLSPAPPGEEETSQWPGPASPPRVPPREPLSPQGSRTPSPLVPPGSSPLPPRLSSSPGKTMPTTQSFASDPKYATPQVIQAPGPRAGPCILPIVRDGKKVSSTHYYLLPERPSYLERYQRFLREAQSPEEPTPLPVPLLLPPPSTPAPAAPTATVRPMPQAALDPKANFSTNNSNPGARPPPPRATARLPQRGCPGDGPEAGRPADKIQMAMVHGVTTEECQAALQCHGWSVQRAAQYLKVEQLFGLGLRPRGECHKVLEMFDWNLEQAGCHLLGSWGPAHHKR
UniProt Q9UL54, sequence (whole entry, looked up): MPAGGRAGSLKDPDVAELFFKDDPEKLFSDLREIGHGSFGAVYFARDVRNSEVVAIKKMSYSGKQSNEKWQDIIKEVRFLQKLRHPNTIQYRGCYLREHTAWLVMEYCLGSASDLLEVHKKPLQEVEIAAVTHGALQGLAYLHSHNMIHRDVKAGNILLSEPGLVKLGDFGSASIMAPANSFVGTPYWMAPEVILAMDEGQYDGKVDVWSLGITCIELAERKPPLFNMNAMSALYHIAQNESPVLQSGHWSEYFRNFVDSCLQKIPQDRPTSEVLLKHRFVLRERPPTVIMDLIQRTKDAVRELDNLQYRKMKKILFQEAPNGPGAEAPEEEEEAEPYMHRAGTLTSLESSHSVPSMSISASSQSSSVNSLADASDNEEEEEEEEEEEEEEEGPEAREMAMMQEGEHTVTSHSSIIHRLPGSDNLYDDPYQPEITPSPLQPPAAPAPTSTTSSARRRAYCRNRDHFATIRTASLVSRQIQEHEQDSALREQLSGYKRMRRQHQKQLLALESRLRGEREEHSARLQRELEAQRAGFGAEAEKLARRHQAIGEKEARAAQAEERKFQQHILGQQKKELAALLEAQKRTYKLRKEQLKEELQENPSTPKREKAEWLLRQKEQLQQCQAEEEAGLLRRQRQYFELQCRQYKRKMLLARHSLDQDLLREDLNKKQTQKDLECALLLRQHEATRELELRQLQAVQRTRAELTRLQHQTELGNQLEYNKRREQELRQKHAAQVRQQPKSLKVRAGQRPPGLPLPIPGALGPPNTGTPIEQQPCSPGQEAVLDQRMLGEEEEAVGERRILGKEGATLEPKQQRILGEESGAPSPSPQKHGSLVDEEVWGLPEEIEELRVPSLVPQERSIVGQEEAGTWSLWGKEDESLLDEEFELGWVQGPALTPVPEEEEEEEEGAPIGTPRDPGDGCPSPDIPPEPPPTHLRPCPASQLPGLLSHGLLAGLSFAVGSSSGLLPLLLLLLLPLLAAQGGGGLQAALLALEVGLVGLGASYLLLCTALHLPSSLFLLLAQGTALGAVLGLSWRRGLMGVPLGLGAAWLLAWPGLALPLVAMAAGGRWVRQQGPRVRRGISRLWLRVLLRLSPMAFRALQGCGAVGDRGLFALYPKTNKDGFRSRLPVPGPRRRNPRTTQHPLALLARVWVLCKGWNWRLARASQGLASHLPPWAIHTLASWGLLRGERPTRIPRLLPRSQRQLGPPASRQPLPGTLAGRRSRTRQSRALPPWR
UniProt P43681, sequence (whole entry, looked up): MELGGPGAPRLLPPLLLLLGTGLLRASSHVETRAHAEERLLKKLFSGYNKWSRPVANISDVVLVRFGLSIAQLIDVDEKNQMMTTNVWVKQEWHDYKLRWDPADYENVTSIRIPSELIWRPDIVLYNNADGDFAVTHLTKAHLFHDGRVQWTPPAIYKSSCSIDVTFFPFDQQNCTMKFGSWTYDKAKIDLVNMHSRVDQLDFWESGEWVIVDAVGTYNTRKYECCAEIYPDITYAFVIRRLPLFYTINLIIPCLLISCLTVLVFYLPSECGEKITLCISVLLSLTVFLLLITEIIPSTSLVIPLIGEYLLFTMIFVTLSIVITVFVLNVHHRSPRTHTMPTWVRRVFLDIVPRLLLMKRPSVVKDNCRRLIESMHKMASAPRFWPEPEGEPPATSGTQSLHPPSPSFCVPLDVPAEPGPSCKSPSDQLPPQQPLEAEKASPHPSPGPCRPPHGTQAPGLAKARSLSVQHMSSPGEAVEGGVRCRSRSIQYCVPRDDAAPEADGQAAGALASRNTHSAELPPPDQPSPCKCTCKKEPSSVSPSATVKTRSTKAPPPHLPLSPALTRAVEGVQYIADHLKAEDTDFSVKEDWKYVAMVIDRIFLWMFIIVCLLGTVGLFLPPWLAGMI
UniProt Q9UNU6, sequence (whole entry, unmodified, looked up): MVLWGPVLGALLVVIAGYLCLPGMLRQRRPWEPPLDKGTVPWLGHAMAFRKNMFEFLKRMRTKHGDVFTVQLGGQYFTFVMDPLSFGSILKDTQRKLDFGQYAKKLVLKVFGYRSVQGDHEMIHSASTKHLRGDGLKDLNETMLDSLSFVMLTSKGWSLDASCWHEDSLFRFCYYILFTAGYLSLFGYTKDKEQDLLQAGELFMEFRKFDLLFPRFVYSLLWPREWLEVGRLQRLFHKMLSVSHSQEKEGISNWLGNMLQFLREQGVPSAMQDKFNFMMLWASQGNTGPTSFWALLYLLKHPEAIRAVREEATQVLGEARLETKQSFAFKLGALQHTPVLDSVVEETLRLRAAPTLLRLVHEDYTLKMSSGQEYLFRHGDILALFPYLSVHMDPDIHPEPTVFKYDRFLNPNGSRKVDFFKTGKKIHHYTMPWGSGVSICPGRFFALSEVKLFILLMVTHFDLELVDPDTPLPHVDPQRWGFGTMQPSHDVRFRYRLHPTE

| SMILES | tested on | assay | system | conditions | scale | endpoint | value |
| --- | --- | --- | --- | --- | --- | --- | --- |
| COc1ccccc1-c1n[nH]c2nc(N[C@H]3CC[C@H](NS(=O)(=O)CC(C)C)CC3)ncc12 | – | bead binding, competition bead pull-down, refers to: LINJ.25.0940 | Leishmania donovani extract | 10 µM | baseline: vehicle | relative abundance | 0.83 |
| O=C(O)c1ccccc1/C=N/Nc1nc(-c2ccccc2Cl)cs1 | AKT2 (Homo sapiens, UniProt P31751) | enzyme activity, inhibitor | – | 1 µM | – | inhibition | -0.65% |
| Cc1cc(Oc2nc(N3CC[C@@H](c4ccncc4)C3)ncc2F)[nH]n1 | Mycobacterium tuberculosis | – | THP-1, H37Rv non-replicating | 3.001 µM, day 4 | – | normalised growth | 3.77% and 13.2% |
| CCCCCCCCCCCCCCCCCC(=O)NC[C@H]1CC[C@H](C(=O)N[C@@H](CCC(=O)NCCCOCCOCCOCCCNC(=O)COCC(=O)N[C@@H](Cc2ccc(O)cc2)C(=O)NC(C)(Cc2ccccc2)C(=O)N[C@@H](CC(C)C)C(=O)N[C@@H](CCCC)C(=O)N[C@@H](CCCNC(=N)N)C(=O)N2CCC[C@H]2C(=O)N[C@@H](CCCNC(=N)NC)C(=O)N[C@@H](CC(N)=O)C(N)=O)C(=O)O)CC1 (stereo partly drawn) | NMUR1 (Homo sapiens, UniProt Q9HB89) | antagonist, DiscoverX GPCR panel | – | 1 µM | – | inhibition | 88% |
| CC(C)(C)C(=O)OCOP(=O)(OCOC(=O)C(C)(C)C)C1CCCN(O)C1=O (stereo not drawn) | BT-549 | – | – | – | – | TGI | 1260 nM |
| CN(/N=C/c1ccccc1C(=O)O)c1nc(-c2ccccc2Cl)cs1 | CLK1 (Homo sapiens, UniProt P49759) | enzyme activity, inhibitor | – | 1 µM | – | inhibition | -3.25% |
| O=C1NC(=O)c2c1c1cc(F)c[n+]3c1c1c2c2cc(O)ccc2[n]1[Ru-4]312([N]=C=S)[S+]3CC[S+]1CC[S+]2CC3 (stereo not drawn) | IRAK1 (Homo sapiens, UniProt P51617) | enzyme activity | – | 100 nM, human enzyme, together with: 10 µM ATP | baseline: untreated | remaining activity | 40% |
| C/C(=N\OCCCN1CCCCC1)c1ccc(C(F)(F)F)cc1 | Neuronal acetylcholine receptor; alpha4/beta2 (Homo sapiens, UniProt P17787+P43681) | calcium influx, antagonist, FLIPR | – | 10 µM | – | inhibition | 11.5% |
| Cc1cc(Nc2nc(C[C@@]3(C(=O)O)CCN(Cc4cccc(Cl)c4F)[C@H](C)C3)cc(C)c2F)[nH]n1 | Androgen receptor (AR, Homo sapiens, UniProt P10275) | inhibitor | – | 10 µM | – | inhibition | 27% |
| O=C(O)c1ccc(-c2nc(-c3ccccc3Cl)c3sccn23)cc1 | HTR1A (Homo sapiens, UniProt P08908) | binding | – | 10 µM | – | inhibition | 38% |
| O=C(N1CCCCC1)n1ccnn1 | Faah (Mus musculus, UniProt O08914) | serine hydrolase activity, inhibitor, competitive gel-based ABPP | mouse T-cell proteome | 1 µM, 30 min, 37 °C | – | inhibition | > 95% |
| CN[C@@H]1[C@H](O)[C@H](NC)[C@H]2O[C@]3(O)[C@H](O[C@@H]2[C@H]1O)O[C@H](C)C[C@H]3NC(=O)Cc1ccc(Cl)cn1 | Adra1b (Rattus norvegicus, UniProt P15823) | ligand displacement, radioligand | – | 10 µM | – | inhibition | -5% |
| CC(C)C[C@@H]1NC(=O)[C@@H](Cc2c[nH]c3ccccc23)NC(=O)[C@H](CCCNC(=N)N)NC(=O)[C@@H](CCC(=O)O)NC(=O)[C@H](CCC(N)=O)NC(=O)[C@@H](CCC(=O)O)NC(=O)[C@H](CCCNC(=N)N)NC(=O)[C@@H](Cc2c[nH]c3ccccc23)NC1=O | – | refers to: IL10 | LDLr-/- mouse on Western diet, liver | dose not given, 4 weeks | – | cytokine level | 160 ± 58 pg/g tissue |
| CC(C)[C@H]1NC(=O)C[C@H]2/C=C/CCSSC[C@@H](NC1=O)C(=O)N[C@H](Cc1cccc3ccccc13)C(=O)NCC(=O)O2 | TNK2 (Homo sapiens, UniProt Q07912) | enzyme activity, inhibitor | – | 10 µM | – | inhibition | -1.1% |
| C=CC(=O)Nc1cc(-c2nn(C3CCC(N4CCN(C(C)=O)CC4)CC3)c3ncnc(N)c23)ccc1Oc1ccccc1 (stereo not drawn) | MAP3K5 (Homo sapiens, UniProt Q99683) | inhibitor, KiNativ profiling | biochemical | 2 µM | – | inhibition | 5.1% |
| CS(C)(=O)=Nc1ccc(-c2ccc(-c3nc4cc(O[C@@H]5CO[C@H]6[C@@H]5OC[C@H]6O)[nH]c4cc3F)cc2)cc1 | NEK6 (Homo sapiens, UniProt Q9HC98) | enzyme activity, inhibitor | – | 10 µM | – | inhibition | 3% |
| Cc1cc(-c2ccc3ccccc3c2)nnc1NCCN1CCN(C)CC1 | LCK (Homo sapiens, UniProt P06239) | enzyme activity | – | 10000 nM | – | inhibition | 19% |
| Cc1ccc2c(n1)c(-c1cccc(S(C)(=O)=O)c1)c(C)n2C/C(F)=C/CN | CCKBR (Homo sapiens, UniProt P32239) | ligand displacement, radioligand | – | 10 µM | – | inhibition | 3% |
| Cc1cc(C(=O)Nc2nc3cccc(C)c3n2[C@H]2CCCCN(C(=O)/C=C/CN(C)C)C2)ccn1 | Trypanosoma brucei brucei | – | CLK1 C215S mutant expressing | 5 x EC50, 48 h | – | cell growth | 10400% and 13300% and 10300% |
| CCC1CC(c2ccc(C(=O)O)cc2C)=NN1c1ccc(C#N)c(Cl)c1 (stereo not drawn) | SUV39H1 (Homo sapiens, UniProt O43463) | enzyme activity, inhibitor | – | 10 µM | – | inhibition | 21% |
| COc1ccc(F)cc1S(=O)(=O)Nc1cnc2c(c1)C(=O)NCCO2 | PTAFR (Homo sapiens, UniProt P25105) | ligand displacement, radioligand | – | 10 µM | – | inhibition | -2% |
| CN[C@@H]1[C@H](O)[C@H](NC)[C@H]2O[C@]3(O)[C@H](O[C@@H]2[C@H]1O)O[C@H](C)C[C@H]3NC(=O)Cc1cc(Cl)ccn1 | CYSLTR1 (Homo sapiens, UniProt Q9Y271) | ligand displacement, radioligand | – | 10 µM | – | inhibition | 4% |
| O=C1NC2(CC2)COc2ncc(F)cc2[C@H]2COCCN2c2ccn3ncc1c3n2 | – | – | Sprague-Dawley rat, female, serum | oral, 2.5 mg/kg/day, 4 weeks daily, end of recovery period | – | potassium | 3.95 ± 0.24 mmol/L |
| COc1ccccc1-c1n[nH]c2nc(NC3CCN(C(=O)Cc4ccc(F)cc4F)CC3)ncc12 | – | bead binding, competition bead pull-down, refers to: LINJ.36.6960 | Leishmania donovani axenic amastigote extract | 10 µM | baseline: vehicle | relative abundance | 1.04 |
| CC(C)CC(C(=O)N1CC2(CC1C#N)C(=O)Nc1ccccc12)N(C)C(=O)c1cc2c(F)cc(F)c(F)c2[nH]1 (stereo not drawn) | Human coronavirus 229E | cytopathic effect | MRC5 | 0.1095 µM | – | inhibition | 106% |
| CN(C)[C@H]1C[C@@]23CC[C@@]4(O2)C(=CC[C@]2(C)[C@@H](c5ccc6ccncc6c5)CC[C@H]24)C=C3[C@@H](O)[C@@H]1O | TAOK2 (Homo sapiens, UniProt Q9UL54) | ATP probe labelling, inhibitor, KiNativ profiling | – | 1 µM | – | inhibition | 14.3% |
| Cc1sc2c(c1C)C(c1ccc(Cl)cc1)=N[C@@H](CC(=O)OC(C)(C)C)c1nnc(C)n1-2 | Bromodomain-containing protein 3, BD1 (BRD3, Homo sapiens, UniProt Q15059) | isothermal titration calorimetry | – | 15 °C, reverse titration | – | TΔS | 2.97 kcal/mol |
| C[C@@]12C(=O)CC[C@H]1[C@@H]1CC=C3C[C@@H](O)CC[C@]3(C)[C@H]1C=C2c1cccnc1 | 7-alpha-hydroxycholest-4-en-3-one 12-alpha-hydroxylase (Homo sapiens, UniProt Q9UNU6, W281F) | inhibitor | – | 80 µM, together with: 7α-hydroxycholest-4-en-3-one | – | inhibition | > 40% |
| N[C@H](C(=O)N1CCCC1)C1CCN(c2nccc3c(-c4ncc(Cl)cc4Cl)cccc23)CC1 | Aurora kinase A (AURKA, Homo sapiens, UniProt O14965) | kinase activity, inhibitor | – | 10 µM, together with: ATP 1 mM | – | inhibition | 6.5% |
| C[C@H](NCc1ccc(-c2ccc(C(F)(F)F)cc2)cc1)C(N)=O | ALK (Homo sapiens, UniProt Q9UM73) | cell-free assay, competition with immobilised ligand | – | 1 µM | – | inhibition | 41% |
